Experimental data pooled from the literature.
Every numbered part comes from another study and shows a few of its results, in no order. Substitutions count along the parent as printed.

Series 1 — target: CCND3, cyclin fold, Cln2 fusion (human); technique: yeast growth competition, sequencing; sample: yeast; notes: weak parent motif; reference: not given; direction: higher = stronger binding
Parent: E2F1 docking peptide (human); PPVKRRLDLETDH
Substitution | normalised enrichment score
D12F | 0.261
D8W | 0.131
K4P | 0.103
L7V | 0.0287
P2L | 0.0795
P2E | 0.138
D8T | 0.203
T11P | 0.188
K4M | 0.146
L7W | 0.155
V3M | 0.128
H13D | 0.112
P1L | 0.167
P2R | 0.126
P1R | -0.0154
H13I | 0.112
L7F | 0.0197

Series 2 — technique: aptamer microarray, sandwich; molecule type: DNA with 2'F-ANA; sample: in vitro; concentration: 200 nM; together with: Cy3 exosite-II aptamer, 400 nM; direction: higher = stronger binding; strand: GGTTGGTGTGGTTGG
Target: Prothrombin, mature alpha-thrombin (F2, Homo sapiens, UniProt P00734)
Notes: whole 15-mer aptamer, many near background
Modification | mean fluorescence intensity [a.u.]
2'F-ANA at 2 3 4 6 8 10 11 14 15 | 161
2'F-ANA at 1 2 3 4 8 9 12 14 15 | 89.4
2'F-ANA at 2 3 4 5 9 10 13 | 50
2'F-ANA at 5 6 7 8 12 13 14 | 94.2
2'F-ANA at 1 3 5 10 12 13 14 | 59
2'F-ANA at 1 2 3 4 7 11 13 15 | 126
2'F-ANA at 2 3 4 5 6 7 11 12 13 15 | 110
2'F-ANA at 1 3 4 5 6 13 | 57.2
2'F-ANA at 2 4 5 8 9 11 12 14 15 | 48.6
2'F-ANA at 5 6 8 9 10 11 13 | 48.7
2'F-ANA at 1 4 5 7 10 11 12 13 14 | 255
2'F-ANA at 1 4 6 8 10 12 13 14 | 66.9
2'F-ANA at 3 4 5 8 10 13 14 | 45.5
2'F-ANA at 2 3 4 5 6 8 9 10 11 12 13 | 52.5
2'F-ANA at 1 2 3 4 12 13 15 | 302
2'F-ANA at 1 2 3 10 13 14 15 | 49.3
2'F-ANA at 2 3 6 7 9 14 | 352
2'F-ANA at 4 7 8 9 11 12 13 15 | 347
2'F-ANA at 1 2 3 6 13 14 | 71.3
2'F-ANA at 3 4 5 8 9 11 13 15 | 66.4
2'F-ANA at 1 3 6 7 9 11 12 13 14 | 90.1
2'F-ANA at 2 4 6 8 10 | 101

Series 3 — technique: RNA Bind-n-Seq; molecule type: RNA; sample: in vitro; concentration: 1 µM; notes: whole 134-nt RNA, ends assumed; together with: 150 mM KCl; reference: input library; direction: higher = stronger binding
Target: Ras GTPase-activating protein-binding protein 1, RRM domain (G3BP1, Homo sapiens, UniProt Q13283)
Sequence of UniProt Q13283 (whole entry, looked up): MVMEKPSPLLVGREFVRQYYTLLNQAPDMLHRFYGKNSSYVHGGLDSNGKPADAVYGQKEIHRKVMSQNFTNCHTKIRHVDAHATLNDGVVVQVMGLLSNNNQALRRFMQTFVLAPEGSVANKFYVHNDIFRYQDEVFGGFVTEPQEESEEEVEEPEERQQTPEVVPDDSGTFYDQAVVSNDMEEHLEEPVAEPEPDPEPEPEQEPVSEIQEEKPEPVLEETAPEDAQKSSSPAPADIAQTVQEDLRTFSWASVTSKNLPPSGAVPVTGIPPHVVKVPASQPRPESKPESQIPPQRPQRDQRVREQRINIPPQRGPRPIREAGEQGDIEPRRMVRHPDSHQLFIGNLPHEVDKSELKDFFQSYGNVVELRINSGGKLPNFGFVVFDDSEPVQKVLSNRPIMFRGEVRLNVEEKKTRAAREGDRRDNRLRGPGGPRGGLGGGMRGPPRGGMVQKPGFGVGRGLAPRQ
All sequences stand within: GGGAGUUCUACAGUCCGACGAUC … UGGAAUUCUCGGGUGUCAAGG
Strand | log2 enrichment
CUCAAGUCCUGUGCUACACAUCGUAUGUACCGAAUCGGGUUGGUUGGGUUGGGGAAAGUAUUAUGUUACGCCGUUCGGAUCUGCACUUCC | 0.0498
UUUCUUCCCCCACAGUUCAUCCAUGAGCUCGGAUUUCCCACAUUACAACUUCAGGAUGCCUAAUAUUGGAUUCCAGAAUCUGCCUCUCAA | 0.224
UCAAGUCCUGUGCUACACAUCGUAUGUACCGAAUCGGGGUUGGGUUGGUUGGGGAAAGUAUUAUGUUACGCCGUUCGGAUCUGCACUUCC | 0.248
GUCCUGUGCUACACAUCGUAUGUACCGAAUCGGGAAAAAAAGGGUUUUUGGGUUUGGGAAAGUAUUAUGUUACGCCGUUCGGAUCUGCAC | 0.0423
UGGCCCUGGUGGCAUGCGGGGAGGAAGAGGUGGCCUCAUGGAUCGUGAUGGUCCCGGUGGAAUGUUCAGAGGUGGCCGUGGUGGAGACAG | 0.746
UGUCUCGAGCAGGGGACAAGACGUUCGAGGAGUACCUGGAUGAGUAUUACCGGCUGGACUACGAGGACAUCAUCGACGACCUGCCCUGUC | -0.28
CGGCAGUAGCAGCAGCGCCGGGUCCCGUGCGGAGGUGCUCCUCGCAGAGUUGUUUCUCGAGCAGCGGCAGUUCUCACUACAGCGCCAGGA | 0.14
CACAGACAACACGCACCCACACAGACACAGAGGGAAGGGGUUGAAAUGGGGACAGGGUGCACAGCAGGGCGGGGUAGGACCCCAGCCCCU | -0.139
UAAGAAGGAAAUUGAGAGGAGAAAAACUGGAAAAGAAAUGUUGGAUUAUAAAAGAAAACAAGAAGAAGAAUUAACAAAAAGAAUGCUGGA | 0.0645
AAGUCCUGUGCUACACAUCGUAUGUACCGAAUCGGAAAAAGGAAAAAGGUUUUUGGAAAGUAUUAUGUUACGCCGUUCGGAUCUGCACUU | -0.159
CCUGUGCUACACAUCGUAUGUACCGAAUCGGGGAAAAAAGGAAAAAAGGGGAAAAAAGGGAAAGUAUUAUGUUACGCCGUUCGGAUCUGC | 0.00108
AAGUCCUGUGCUACACAUCGUAUGUACCGAAUCGGCCCGGGGCCCGGGGCCCGGGGAAAGUAUUAUGUUACGCCGUUCGGAUCUGCACUU | -1.48
UUGUGAUUAAGAUUUGUUCUUUUUCUCCCCUCUCUAUAGGAAGAUGAUCCCUAUGAUCUUGAAGAUGUUUCUGCACAGAAAUGAGGGAAA | -0.134
UGGCAGGUGGAUUUUGUUUAUUUUUUUAGCUCAUUUCCAGGGGUGGGAAUUUUUUUUUAAUAUGUGUCAUGAAUAAAGUUGUUUUUGAAA | 1.91

Series 4 — technique: protein-binding microarray; molecule type: double-stranded DNA, one strand shown; sample: in vitro; concentration: not given; direction: higher = stronger binding
Target: Myc proto-oncogene protein, bHLH-zipper, MAX partner unstated (MYC, Homo sapiens, UniProt P01106, residues 368-449)
Sequence of UniProt P01106 (368-449, looked up): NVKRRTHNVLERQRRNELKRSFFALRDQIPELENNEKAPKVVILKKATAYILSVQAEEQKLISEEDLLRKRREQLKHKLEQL
Notes: k-mer, scored over probes, only values ≥0.25
Strand | E-score
ACGCCGCG | 0.304
CGTGCCAG | 0.279
CTGGCCAC | 0.265
GATCACGC | 0.348
ACGCGCGG | 0.36
CAGGTGAC | 0.347
CCGCACGA | 0.307
CCCGCCGC | 0.306
CACGCCAA | 0.263
GTGAGCAC | 0.258
AACATGCC | 0.326
AATGTGCG | 0.353
ACGCCTAT | 0.274
ATGGTGGG | 0.255
TGCACACA | 0.283
GCCCCGCC | 0.358
GCTGAGCA | 0.306
CCCTCGCG | 0.292
ATGTGTGA | 0.282
GCGTGGTA | 0.436
GCGTGTAA | 0.316
CATGCCAA | 0.345
CGTGTGTA | 0.367

Series 5 — technique: RNA Bind-n-Seq; molecule type: RNA; sample: in vitro; concentration: 365 nM; reference: no-protein control; direction: higher = stronger binding
Target: RNA binding protein fox-1 homolog 2, RRM domain, GST-SBP tag (RBFOX2, Homo sapiens, UniProt O43251-10, residues 100-194)
Notes: natural RNA segment, single round, ends assumed
All sequences stand within: GGGAGUUCUACAGUCCGACGAUC … UGGAAUUCUCGGGUGCCAA
Target sequence (chain): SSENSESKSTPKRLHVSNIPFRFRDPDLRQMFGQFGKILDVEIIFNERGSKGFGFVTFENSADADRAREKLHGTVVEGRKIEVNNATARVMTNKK
Strand | RBNS enrichment (R)
AUAGCCAAGAGGGUCAUACAGCCCAGUGGUGUAGAGCAAGACACCAGGUAGCAGUAAUAGAAAACAACCUCACACCAUUUUCACAAUGGCCGCCCAUCCUCGGGGACUGU | 0.33
CUGUGUGUCUGUGUCUCAGUUGCUCUGGCAGAAAAAUGGGGUUAAACUUGCCCUUUCUGAAGGCAAGCCUAGAAUUGGGUCUUUUGUUGUCAUUGUUCCAAAUUUCCAGA | 0.502
ACCAUCACCCUCUCUGUCCCUCCUCAGCCACGCCCAAGUGUACUGGGAUACCUAAGGACCAAUGUUUUCUUCCUCUUAGACACAAAUAAAGAUGCUGAGAAAAAGCAACA | 0.21
UCCUUUUCCACCCUUCUCCCCAGUGCCUUCCUCGUCCUGGUGGAGCUGAGGCCUACUCCUCCCCAGUCCAACACUGCCAAAAAUCUGUGUAUGUGCCAGGGGUCGGGGGU | 0.264
CACCCCGGCUCCCUGGCCCUAUCCACACCUCCACCCCCACCCCAGGAUCGCCAUCUUUAGGGGAGGCCUGGGAGGGGGUGUUAGGUGUUUUAGGGCCACCGAGCUCAAAC | 0.264
CUUUUUUAAAACCUAUUCAGGAUUAUUAGCCUGGACUUGGACACAGAGUUUGUAAAUAAAGGUGUCUGUGCAGAUUUUCCCACUGAUUUAUUUGUAUAAAAAUACUCAUC | 1.1
GCUUUUCAGCUGACAUACAGAGCACUAAAUACUUUACGGCAAAUCCAUAGGUCUGAAUCUCUUAAGAAUUCUCAGUCUCUCUGGGAUGUAGGGCGCAUUAUAAAUGCAUU | 0.386
UUUAUCUCUUCUAAACUGUGUUUAUAUUGCUCUGGGUCCAACAACACUAAAUCAUAGUUUAACACAGGAAUCAAAAUGGAAGCCACGGGGAGCAUAGCAUGUGGGUUUCU | 2.55
AAAUAUAACAAUGUCUGAGUUUCACCUAAGAUGUUUUUGUGCCAUAUGCUGGAUAUCCAGGUUCUCGCCAGGCCCCGAUACAUGAAUAACAAACCCAAGAAACGCAUCCC | 0.514
ACUUUAGAGCCAAGGCCUGGCAGUCCUGCAGCCAGCCUCUGCUCGCAGCCGCAGACGGUCUGGACACCGCCGCAGGGGUGGGGUGAGGCGUCCCCCACCCUGCGGGACAG | 0.33
UGUAAAUCACGGAAUAUCCGUGAAGGGAUUUCUUAAUUUAUUUUUUACCGGUUGAUUGAAAUAUCAGUUAAAGGUUGCCAGCAUGGUUGCAGAUAAACUGAUGUUUGAAA | 0.833
AUCAUGUAUUGUGAUGUUUCAAUGUGAGACACAAAAACAAUGGCUUGAAACUUGUGUAUCAUAUGUGAUUUUGAAAUGAACACCUUGAAUAGCACUAAUUUUUAUUUGUG | 0.698

For quick reference, copied from above (series 2):
Modification | mean fluorescence intensity [a.u.]
2'F-ANA at 1 3 6 7 9 11 12 13 14 | 90.1
2'F-ANA at 2 4 6 8 10 | 101
2'F-ANA at 2 3 4 5 6 7 11 12 13 15 | 110
2'F-ANA at 1 2 3 6 13 14 | 71.3
2'F-ANA at 1 2 3 4 8 9 12 14 15 | 89.4
2'F-ANA at 1 2 3 4 7 11 13 15 | 126
2'F-ANA at 5 6 7 8 12 13 14 | 94.2
